Literature values as cited in several papers.
Each line is one published result; not all experiments were run side by side. pIC50: −log10 of the molar value.

Compound | tested on | test | setting | measurement | value
O=C(NCc1ncc(C(F)(F)F)cc1Cl)c1ccc2c(c1)C1(CCS(=O)(=O)CC1)[C@H](C1CC1)N2S(=O)(=O)c1ccc(F)cc1 | GNRHR | biochemical activity |  | pIC50 | 7.68
Cc1c[nH]c(/C=C2\C(=O)Nc3ccccc32)c1CCC(=O)O | insulin receptor | inhibitor |  | IC50 | no inhibition
FC(F)(F)c1cc(-c2ccccc2)c2nncn2c1 | METAP2 (human) | enzyme activity |  | pIC50 | < 5.00
CCN(CC)CCCCNc1ncc2cc(-c3cc(OC)cc(OC)c3)c(NC(=O)NC(C)(C)C)nc2n1 | PKC | inhibitor |  | pIC50 | < 4.30
Cn1nc(C(F)(F)F)cc1-c1cnc(N2CCc3cc(S(=O)(=O)Nc4c(F)cc(Cl)cc4F)cc(N4CCCC4=O)c32)nc1 | MGAT2 (human) | enzyme activity |  | pIC50 | 8.11
OCc1cn(Cc2cccc(Cl)c2)c2ccccc12 | most sensitive cancer lines |  | eight of fifty-eight lines | GI50 | ≤ 10 nM
Cc1c(NC(=O)c2cc(C(N)=O)nc3cc(F)ccc23)c(C(F)(F)F)nn1Cc1ccc(C#N)cc1 | PTGER4 | binding, radioligand binding Eurofins-Panlabs |  | pIC50 | 5.95
O=C1NC(=O)N(C2CC(O)C(CO)O2)CC1F (centres unmarked) | Cryptosporidium parvum | high-throughput screen | concentration not given | activity | inactive

For quick reference, copied from above:
Compound | tested on | test | setting | measurement | value
Cn1nc(C(F)(F)F)cc1-c1cnc(N2CCc3cc(S(=O)(=O)Nc4c(F)cc(Cl)cc4F)cc(N4CCCC4=O)c32)nc1 | MGAT2 (human) | enzyme activity |  | pIC50 | 8.11
